Results gathered from unrelated publications.
Every numbered part comes from another study and shows a few of its results, in no order. Substitutions count along the parent as printed.

Sample 1 — technique: DHFR PCA, deep sequencing; medium: yeast; together with: (+)-ABA 0 µM; reference: wild-type fitted maximum; direction: higher = stronger binding
Target: ABI1, truncated, D143A, DHFR fusion (Arabidopsis thaliana)
Notes: methotrexate growth selection, single substitutions
Starting sequence: PYL1, truncated, DHFR fusion (Arabidopsis thaliana); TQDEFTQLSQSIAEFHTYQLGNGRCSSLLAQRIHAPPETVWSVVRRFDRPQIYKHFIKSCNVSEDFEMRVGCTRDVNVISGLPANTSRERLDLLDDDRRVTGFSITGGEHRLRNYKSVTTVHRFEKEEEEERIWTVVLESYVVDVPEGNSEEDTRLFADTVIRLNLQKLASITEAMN
Under “relative binding score”, `T17F` is recorded as -2.36%.
For `V136I`, “relative binding score” read 27.3%.
For `F124T`, “relative binding score” read -2.58%.
For `D97Y`, “relative binding score” read 1.87%.
Under “relative binding score”, `K168G` is recorded as -10.8%.
For `S150I`, “relative binding score” read -12%.
`D159T`: “relative binding score” -10.9%.
For `L138F`, “relative binding score” read 5.12%.
For `V121Y`, “relative binding score” read -7.28%.
`F56N`: “relative binding score” -1.38%.
`E109G`: “relative binding score” 0.751%.
Under “relative binding score”, `D48L` is recorded as -5.12%.
For `S150Y`, “relative binding score” read -5.82%.
`S104F`: “relative binding score” -12.9%.

Sample 2 — target: CRIPT, C-terminal peptide; technique: DHFR complementation, deep sequencing; medium: yeast; reference: wild type; direction: higher = weaker binding
Notes: single substitutions, model-inferred values
Starting sequence: ERBIN, PDZ domain 1 (human); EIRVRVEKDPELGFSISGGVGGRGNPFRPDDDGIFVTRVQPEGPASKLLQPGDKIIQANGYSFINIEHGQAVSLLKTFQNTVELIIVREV; partner TKNYKQTSV
`A45T`: “binding free energy change” 0.331 kcal/mol.
`P51G`: “binding free energy change” 0.15 kcal/mol.
Under “binding free energy change”, `K76V` is recorded as 0.185 kcal/mol.
For `P51F`, “binding free energy change” read 0.303 kcal/mol.
`L75H`: “binding free energy change” 0.765 kcal/mol.
For `G21I`, “binding free energy change” read 0.715 kcal/mol.
For `S46E`, “binding free energy change” read 0.0616 kcal/mol.
`G22P` — result for “binding free energy change”: 0.164 kcal/mol.
For `N25M`, “binding free energy change” read 1.12 kcal/mol.
`P26V`: “binding free energy change” 1.08 kcal/mol.
Under “binding free energy change”, `K47R` is recorded as 0.0408 kcal/mol.
`I85P`: “binding free energy change” 0.792 kcal/mol.
`D9T`: “binding free energy change” 0.279 kcal/mol.
Under “binding free energy change”, `K54M` is recorded as 0.162 kcal/mol.
For `Y61M`, “binding free energy change” read -0.0206 kcal/mol.
Under “binding free energy change”, `L75R` is recorded as 1.23 kcal/mol.

Sample 3 — target: BATF2, bZIP domain (human); technique: DHFR protein complementation; medium: yeast; reference: wild-type JUN-FOS pair; direction: higher = stronger binding
Notes: single substitutions, most at no-binding floor
Starting sequence: JUN, bZIP domain (human); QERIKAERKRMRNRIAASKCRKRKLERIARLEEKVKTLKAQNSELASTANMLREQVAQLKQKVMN; partner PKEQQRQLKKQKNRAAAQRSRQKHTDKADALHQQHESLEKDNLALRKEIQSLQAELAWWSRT
`E33H` has a binding fitness of -0.608 natural log.
For `K36N`, the binding fitness was -0.231 natural log.
`N42R` has a binding fitness of -0.819 natural log.
For `K39A`, the binding fitness was -0.448 natural log.
`A49S` has a binding fitness of -1.02 natural log.
`S43V` has a binding fitness of -0.304 natural log.
For `S43A`, the binding fitness was -0.0682 natural log.
`T48F` has a binding fitness of -0.286 natural log.
With `E44W` the binding fitness was -0.736 natural log.
For `L38S`, the binding fitness was -0.944 natural log.
With `A49D` the binding fitness was -1.32 natural log.
The binding fitness of `L38C` is reported as -1.14 natural log.
`L31W` has a binding fitness of -0.572 natural log.
The binding fitness of `L38D` is reported as -1.52 natural log.
`L31E` has a binding fitness of -0.826 natural log.
The binding fitness of `S43T` is reported as -0.144 natural log.

Sample 4 — technique: protein-binding microarray; molecule type: double-stranded DNA, one strand shown; medium: in vitro; tested at: 2540 nM top; notes: 60-bp whole probe; together with: salmon DNA 0.4 mg/ml; reference: random background probes; direction: higher = stronger binding; shared flanks, not repeated: GCCTAGCAC … GTCTTGATTCGCTTGACGCTGCTG
Target: Interferon regulatory factor 3, full length, phosphomimetic (IRF3, Homo sapiens, UniProt Q14653, residues 1-427, S386D/S396D/S398D/S402D/T404D/S405D)
UniProt Q14653, sequence (whole entry, unmodified, looked up): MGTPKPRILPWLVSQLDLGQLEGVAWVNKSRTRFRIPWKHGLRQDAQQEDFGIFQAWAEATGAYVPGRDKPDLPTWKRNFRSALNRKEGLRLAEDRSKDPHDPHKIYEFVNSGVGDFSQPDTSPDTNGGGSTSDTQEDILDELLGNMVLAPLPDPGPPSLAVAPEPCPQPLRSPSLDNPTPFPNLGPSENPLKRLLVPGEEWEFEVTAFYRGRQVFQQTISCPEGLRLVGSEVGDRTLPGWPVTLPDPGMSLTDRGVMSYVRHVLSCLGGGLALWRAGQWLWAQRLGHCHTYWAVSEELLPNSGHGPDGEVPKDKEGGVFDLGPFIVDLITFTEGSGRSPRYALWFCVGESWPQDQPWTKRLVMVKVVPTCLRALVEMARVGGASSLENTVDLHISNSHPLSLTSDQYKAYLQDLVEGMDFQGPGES
For `GGCGATATCAGTATCGAGACGTGCTAG`, “fitted relative affinity” read 1.12 z-score.
`TCATATATCCATTATAGACTGTGCTAG`: “fitted relative affinity” 1.52 z-score.
`TGAGAACTGAGACTGGATTAGTGCTAG` — result for “fitted relative affinity”: -0.466 z-score.
`TTAGGTTTCCTTTTCCTTAAGTGCTAG`: “fitted relative affinity” 11.9 z-score.
Under “fitted relative affinity”, `TGGGGCTGTATCATCTGAAGGTGCTAG` is recorded as -0.293 z-score.
`AAACGGATGATCTCTCTGGGCGTGCTA`: “fitted relative affinity” -0.187 z-score.
Under “fitted relative affinity”, `GACGGTTCCCTTTTGCTGACGTGCTAG` is recorded as 5.59 z-score.
`GACGGACTAGGACTGGGGACGTGCTAG`: “fitted relative affinity” -0.575 z-score.
`GACGATTTCGGGATTCGAGACGTGCTA` — result for “fitted relative affinity”: 1.99 z-score.
For `GACGGACTGCTAATCCTGACGTGCTAG`, “fitted relative affinity” read -0.482 z-score.
Under “fitted relative affinity”, `TCATGTACATCTCTCTTACTGTGCTAG` is recorded as 0.36 z-score.
`TTAGGTATCGACACTGAGTTAGTGCTA` — result for “fitted relative affinity”: 0.23 z-score.
`GACGATATCAGTATCGAGATGTGCTAG` — result for “fitted relative affinity”: 1.23 z-score.
Under “fitted relative affinity”, `TTAGATTTCGGGACAGGATTAGTGCTA` is recorded as 1.2 z-score.
Under “fitted relative affinity”, `TCATGTTTGGTTCTGATACTGTGCTAG` is recorded as 0.759 z-score.
Under “fitted relative affinity”, `TTAGATCTCAGTAGCGATTAGTGCTAG` is recorded as -0.18 z-score.
`TCATTTTGGTTTCTGGTACTGTGCTAG` — result for “fitted relative affinity”: 3.01 z-score.
Under “fitted relative affinity”, `TCATTCCTCTTTTTTGTACTGTGCTAG` is recorded as 2.07 z-score.
`TCAGAACTGGGGTTTCGATTAGTGCTA`: “fitted relative affinity” 1.54 z-score.
For `GACGGTTTCAACTTTCGGGACGTGCTA`, “fitted relative affinity” read 2.48 z-score.
Under “fitted relative affinity”, `TCAAGAATCACAACTAGGACTGTGCTA` is recorded as 0.353 z-score.
`GACGATCTCAGACTGGAGAGGTGCTAG`: “fitted relative affinity” 0.168 z-score.

Sample 5 — target: CCNF, cyclin fold, Cln2 fusion (human); technique: yeast growth competition, sequencing; medium: yeast; notes: strong parent motif; reference: not given; direction: higher = stronger binding
Starting sequence: INSM1 docking peptide (human); PKAIRKLHFEDEV; partner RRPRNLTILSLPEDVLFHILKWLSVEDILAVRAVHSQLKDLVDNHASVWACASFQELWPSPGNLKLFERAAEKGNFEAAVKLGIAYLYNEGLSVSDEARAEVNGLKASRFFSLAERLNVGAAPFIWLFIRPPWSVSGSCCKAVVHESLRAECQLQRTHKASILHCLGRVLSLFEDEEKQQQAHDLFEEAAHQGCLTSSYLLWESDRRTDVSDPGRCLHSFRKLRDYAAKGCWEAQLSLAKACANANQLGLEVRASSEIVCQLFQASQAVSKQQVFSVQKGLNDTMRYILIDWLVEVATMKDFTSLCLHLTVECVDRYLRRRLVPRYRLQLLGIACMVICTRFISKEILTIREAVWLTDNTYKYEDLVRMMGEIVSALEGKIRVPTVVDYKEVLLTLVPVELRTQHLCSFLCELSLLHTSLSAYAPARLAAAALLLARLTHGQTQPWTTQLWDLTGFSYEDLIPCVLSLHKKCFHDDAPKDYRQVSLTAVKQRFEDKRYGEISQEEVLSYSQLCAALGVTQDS
Under “normalised enrichment score”, `PKAIRKLHFEDGV [E12G]` is recorded as 7.73.
Under “normalised enrichment score”, `PKPIRKLHFEDEV [A3P]` is recorded as 7.32.
`PKAIRKLHFEDNV [E12N]`: “normalised enrichment score” 7.66.
`PKAIRKLHFEDYV [E12Y]`: “normalised enrichment score” 7.64.
For `PKTIRKLHFEDEV [A3T]`, “normalised enrichment score” read 7.57.
For `PKAMRKLHFEDEV [I4M]`, “normalised enrichment score” read 7.91.
`PKAIRKLEFEDEV [H8E]`: “normalised enrichment score” 6.85.
`PKAIRKLMFEDEV [H8M]` — result for “normalised enrichment score”: 7.75.
`PKAIRKLHFMDEV [E10M]` — result for “normalised enrichment score”: 7.47.
For `PKAKRKLHFEDEV [I4K]`, “normalised enrichment score” read 8.43.
`PKAVRKLHFEDEV [I4V]`: “normalised enrichment score” 7.54.
`PKAERKLHFEDEV [I4E]`: “normalised enrichment score” 4.01.
`PKAIHKLHFEDEV [R5H]` — result for “normalised enrichment score”: 0.796.
`PKAIRKLHFPDEV [E10P]` — result for “normalised enrichment score”: 8.
`PKAIRKLSFEDEV [H8S]`: “normalised enrichment score” 6.49.
Under “normalised enrichment score”, `PKAIRKLHFEIEV [D11I]` is recorded as 7.74.
`PCAIRKLHFEDEV [K2C]`: “normalised enrichment score” 7.39.
Under “normalised enrichment score”, `PKAIRKKHFEDEV [L7K]` is recorded as 0.975.
Under “normalised enrichment score”, `PKKIRKLHFEDEV [A3K]` is recorded as 3.07.
For `PNAIRKLHFEDEV [K2N]`, “normalised enrichment score” read 6.89.
`PKYIRKLHFEDEV [A3Y]` — result for “normalised enrichment score”: 6.6.
`PKAWRKLHFEDEV [I4W]` — result for “normalised enrichment score”: 6.72.
`PKAIRKLHFDDEV [E10D]` — result for “normalised enrichment score”: 7.12.
`PKAIRKLKFEDEV [H8K]`: “normalised enrichment score” 7.53.
For `PKAIRKQHFEDEV [L7Q]`, “normalised enrichment score” read 0.145.

Sample 6 — technique: universal PBM; molecule type: double-stranded DNA, one strand shown; medium: in vitro; tested at: 600 nM; direction: higher = stronger binding
Target: Sal-like protein 4, full length isoform A (SALL4, Homo sapiens, UniProt Q9UJQ4, residues 1-1053)
UniProt Q9UJQ4, sequence (whole entry, looked up): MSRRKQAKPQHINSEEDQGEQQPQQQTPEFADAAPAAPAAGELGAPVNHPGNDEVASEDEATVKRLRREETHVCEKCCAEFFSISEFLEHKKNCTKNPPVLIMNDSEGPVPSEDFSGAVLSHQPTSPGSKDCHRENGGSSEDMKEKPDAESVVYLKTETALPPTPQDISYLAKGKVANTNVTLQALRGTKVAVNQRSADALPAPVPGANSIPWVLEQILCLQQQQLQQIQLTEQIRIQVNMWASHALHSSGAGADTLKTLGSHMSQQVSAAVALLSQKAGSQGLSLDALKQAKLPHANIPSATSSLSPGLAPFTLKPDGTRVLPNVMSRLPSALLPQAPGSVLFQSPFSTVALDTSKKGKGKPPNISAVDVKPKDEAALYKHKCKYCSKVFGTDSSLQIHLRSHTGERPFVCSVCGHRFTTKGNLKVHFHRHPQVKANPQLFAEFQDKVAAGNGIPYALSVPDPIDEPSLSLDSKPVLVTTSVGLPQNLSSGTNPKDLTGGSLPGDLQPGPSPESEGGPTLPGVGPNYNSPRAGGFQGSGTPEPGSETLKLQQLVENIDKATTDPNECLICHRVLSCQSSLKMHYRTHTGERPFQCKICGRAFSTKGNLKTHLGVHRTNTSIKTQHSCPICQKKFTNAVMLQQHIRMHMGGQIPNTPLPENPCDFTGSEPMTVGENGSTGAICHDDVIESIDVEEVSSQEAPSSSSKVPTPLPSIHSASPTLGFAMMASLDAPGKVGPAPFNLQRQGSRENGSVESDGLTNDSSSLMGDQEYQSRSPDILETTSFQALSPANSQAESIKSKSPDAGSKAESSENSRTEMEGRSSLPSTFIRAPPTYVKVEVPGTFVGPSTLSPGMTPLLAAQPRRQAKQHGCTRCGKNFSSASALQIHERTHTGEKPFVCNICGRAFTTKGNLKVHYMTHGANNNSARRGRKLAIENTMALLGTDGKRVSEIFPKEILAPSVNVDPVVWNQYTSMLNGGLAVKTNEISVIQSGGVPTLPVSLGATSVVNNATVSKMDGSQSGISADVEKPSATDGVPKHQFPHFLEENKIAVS
Notes: 8-mer, flanks averaged, mean of replicates
`ACTATGAT` gave an E-score of 0.199.
The E-score of `CCCCGAGG` is reported as -0.393.
For `CCCTAAGA`, the E-score was -0.207.
With `AGGCCAAG` the E-score was -0.198.
`TGGAAAAA` has an E-score of 0.285.
`ACCGAGCT` gave an E-score of -0.188.
For `AATCCTAC`, the E-score was -0.0553.
For `GAAGTAGC`, the E-score was -0.0822.
`CGCCGCCG` gave an E-score of -0.352.
`AATATGCA` gave an E-score of 0.234.
The E-score of `CCCCTAGG` is reported as -0.371.
For `TGCAAGCA`, the E-score was -0.0369.
The E-score of `GCTGTCTA` is reported as -0.117.
`CGGGGACG` gave an E-score of -0.326.
For `AAAAGACG`, the E-score was 0.102.
`GCGACTAC` gave an E-score of -0.127.
`CCCTAATA` has an E-score of 0.226.
With `ACTGATTA` the E-score was 0.232.
The E-score of `GATGGCAA` is reported as 0.0884.
`CGATCTGC` gave an E-score of -0.27.
With `ACGGAGTG` the E-score was -0.106.
`GTGATTGA` has an E-score of 0.203.
`CTGCCATC` gave an E-score of -0.0603.
With `GATCCGAC` the E-score was -0.146.
`CCCTAGAC` has an E-score of -0.204.

Further values, each from its own experiment
`PhoQ, residues 284 288 289 292 302 303 AEGLLW` has a fold induction of 4.79 (PhoP, residues 12 14 15 18 19 QWHVF (Escherichia coli, UniProt P23836); Sort-seq, item: YFP reporter; E. coli; PhoQ-PhoP variant library, together with: 10 µM Mg2+; reference: high Mg2+ state, higher = stronger signaling).

Repeated from above (sample 5):
`PKAIRKLMFEDEV [H8M]` — result for “normalised enrichment score”: 7.75.
`PKAIRKLHFMDEV [E10M]` — result for “normalised enrichment score”: 7.47.
For `PKAKRKLHFEDEV [I4K]`, “normalised enrichment score” read 8.43.
`PKAVRKLHFEDEV [I4V]`: “normalised enrichment score” 7.54.
`PKAERKLHFEDEV [I4E]`: “normalised enrichment score” 4.01.
`PKAIHKLHFEDEV [R5H]` — result for “normalised enrichment score”: 0.796.
`PKAIRKLHFPDEV [E10P]` — result for “normalised enrichment score”: 8.
`PKAIRKLSFEDEV [H8S]`: “normalised enrichment score” 6.49.
Under “normalised enrichment score”, `PKAIRKLHFEIEV [D11I]` is recorded as 7.74.
`PCAIRKLHFEDEV [K2C]`: “normalised enrichment score” 7.39.
Under “normalised enrichment score”, `PKAIRKKHFEDEV [L7K]` is recorded as 0.975.
Under “normalised enrichment score”, `PKKIRKLHFEDEV [A3K]` is recorded as 3.07.
For `PNAIRKLHFEDEV [K2N]`, “normalised enrichment score” read 6.89.
`PKYIRKLHFEDEV [A3Y]` — result for “normalised enrichment score”: 6.6.
`PKAWRKLHFEDEV [I4W]` — result for “normalised enrichment score”: 6.72.
